Measured values collected from several papers.
Lines come from different studies, so protocols differ. Numbers after ± are the reported error.
YWHAG/RELA phospho-Ser45 p65 peptide: YWHAG/RELA, phospho-Ser45 p65 peptide (Homo sapiens, UniProt P61981+Q04206)
Nuclear receptor subfamily 2 group C member 2 ligand-binding domain: Nuclear receptor subfamily 2 group C member 2, ligand-binding domain (Homo sapiens, UniProt P49116)

CCN(CC)CCCC(C)Nc1ccnc2cc(Cl)ccc12 (stereo not shown) — apoptotic cells (COS-7; 50 µM, 24 h, 0.1% DMSO, unit not given; relative to: vehicle control): 0.84 ± 0.41
CN1CC2c3ccccc3Oc3ccc(Cl)cc3C2C1 (stereo not shown) — EC50 (HTR1A (Homo sapiens, UniProt P08908, R225A); agonist): 0.0127 µM
O=Cc1cccc(-n2ccnc2)c1 — EC50 (YWHAG/RELA phospho-Ser45 p65 peptide; ternary complex formation, stabilizer, fluorescence anisotropy): > 1000 µM
CCCCCCCC(=O)c1c(O)cc(O)cc1CC(=O)OCC — confluence (COS-7; 10 µM, 24 h, 0.1% DMSO, unit not given; relative to: vehicle control): 1.06 ± 0.02
CCCc1cc(C)[nH]c(=O)c1CNC(=O)c1cc(-c2ccc(N3CCN(C(C)C)CC3)nc2)cc2c1cnn2C(C)C — viability (OCI-Ly1; 0.5 µM, 120 h): 110%
COc1cc(C(=O)NS(=O)(=O)c2ccccc2C)ccc1Cc1cn(C)c2ccc(NC(=O)OC3CCCC3)cc12 — Kd (Nuclear receptor subfamily 2 group C member 2 ligand-binding domain; SPR imaging): 200 pM
CC[C@@H]1[C@H](F)C(=O)N[C@@H]1COc1nccc2cc(C(N)=O)c(OC)cc12 — IC50 (CAMK2G (Homo sapiens, UniProt Q13555); ATP-site probe binding, inhibitor, ActivX ATP probe profiling; THP-1 cell lysate; probe site Lys1): 2.9 µM
Cc1ncsc1-c1ccc([C@H](CC(=O)N2CCN(c3ccc(C#Cc4ccc(C(=O)N5CCC(n6cc(-c7ccc8c(c7)CCN8C(=O)Cc7cccc(OC(F)(F)F)c7)c7c(N)ncnc76)CC5)cc4)cn3)CC2)NC(=O)[C@@H]2C[C@@H](O)CN2C(=O)[C@@H](NC(=O)C2(F)CC2)C(C)(C)C)cc1 — DC50 (RIPK1 (Homo sapiens, UniProt Q13546); degrader, western blot; U-937): 0.0008 µM
O=Cc1ccc(S(=O)(=O)N2CCNC(=O)C2)cc1 — EC50 (YWHAG/RELA phospho-Ser45 p65 peptide; ternary complex formation, stabilizer, fluorescence anisotropy): > 1000 µM
O=C(O)Cc1ccccc1Nc1c(Cl)cccc1Cl — Kd (Nuclear receptor subfamily 2 group C member 2 ligand-binding domain; SPR imaging): 736 pM
O=C(CCCCCCC(=O)Nc1ccc([C@H]2O[C@@H](CSc3nc(-c4ccccc4)c(-c4ccccc4)o3)C[C@@H](c3ccc(CO)cc3)O2)cc1)NO — viability (OCI-Ly1; 0.5 µM, 120 h): 147%
C=C1/C(=C\C=C2/CCC[C@]3(C)[C@@H]([C@H](C)/C=C/[C@H](C)C(C)C)CC[C@@H]23)C[C@@H](O)C[C@@H]1O — Kd (Nuclear receptor subfamily 2 group C member 2 ligand-binding domain; SPR imaging): 78.1 pM
COc1cc(C)c(NC(=O)c2ccc(C=O)cc2)cn1 — EC50 (YWHAG/RELA phospho-Ser45 p65 peptide; ternary complex formation, stabilizer, fluorescence anisotropy): > 1000 µM

Some of these lines once more:
O=C(O)Cc1ccccc1Nc1c(Cl)cccc1Cl — Kd (Nuclear receptor subfamily 2 group C member 2 ligand-binding domain; SPR imaging): 736 pM
O=C(CCCCCCC(=O)Nc1ccc([C@H]2O[C@@H](CSc3nc(-c4ccccc4)c(-c4ccccc4)o3)C[C@@H](c3ccc(CO)cc3)O2)cc1)NO — viability (OCI-Ly1; 0.5 µM, 120 h): 147%
